Experimental data gathered from unrelated publications.
Protocols differ between the studies behind these lines. Several values in a cell are separate wells, animals, samples, runs or records. ± gives the spread as reported. In brackets after ≈: the same amount, converted by molar mass.

SMILES	tested on	assay	test system	conditions	how to read	endpoint	value
CCCNCCc1c[nH]c2cccc(O)c12.CCCNCCc1c[nH]c2cccc(O)c12.O=C(O)/C=C/C(=O)O	–	–	C57BL/6J mice	subcutaneous, 0.1 mg/kg	–	head twitch count	6.4 ± 1.7
CN1CCN(C2(CNC3CCN(c4cccc(-c5cc6cc(F)ccc6[nH]5)c4)CC3)CCC2)CC1	UO-31	–	–	–	–	CC50	6.39 µM
CC(C)(C)NCCc1c[nH]c2cccc(O)c12.CC(C)(C)NCCc1c[nH]c2cccc(O)c12.O=C(O)/C=C/C(=O)O	–	–	C57BL/6J mice	subcutaneous, 10 mg/kg	–	head twitch count	8.3 ± 1.4
CCCCCCCCCCCCCCCC[N+](C)(C)CCCCCCCCCCCC[N+](C)(C)CCCCCCCCCCCCCCCC.[Br-].[Br-]	influenza A virus A/PR/8/34 (H1N1)	–	–	concentration not given, post-treatment	–	protection	64.3 ± 4.5%
CN1CCN(S(=O)(=O)c2cc([N+](=O)[O-])ccc2N(CCOS(C)(=O)=O)CCOS(C)(=O)=O)CC1	–	–	NSG mice, sample BJ PDX	intraperitoneal, 25 mg/kg weekly x3	reference: vehicle	EFS delay (T-C)	> 386 days
COc1cc2c(Oc3ccc4[nH]c(C)cc4c3F)ccnc2cc1OCC1(N)CC1	–	–	paediatric recurrent refractory sarcoma	8 mg	–	Rash incidence	0%
CCCCC1(CCCC)CN(c2ccccc2)c2cc(SC)c(OCC(=O)N[C@@H](C(=O)NCC(=O)O)c3ccccc3)cc2S(=O)(=O)C1	–	refers to: LDL cholesterol	human, serum	5 mg once daily, day 1	–	serum LDL-C	123 mg/dL
C[C@H]1O[C@@H](O[C@H]2CC[C@@]3(C)[C@@H](CC[C@]4(C)[C@@H]3C=C[C@]35OC[C@@]6(CCC(C)(C)C[C@H]63)[C@@H](O)C[C@]54C)[C@]2(C)CO)[C@H](O)[C@@H](O[C@@H]2O[C@H](CO)[C@@H](O)[C@H](O)[C@H]2O)[C@H]1O	–	–	mouse, chronic-plus-binge ethanol, hepatic SIRT1 knockdown, liver	dose not given, high dose	–	hepatic triglycerides	0.217 mmol/g protein and 0.11 mmol/g protein and 0.237 mmol/g protein and 0.135 mmol/g protein and 0.212 mmol/g protein and 0.227 mmol/g protein
CC(CCCN(CCCl)CCCl)Nc1ccnc2cc(Cl)ccc12.O=C(O)c1cc2ccccc2c(Cc2c(O)c(C(=O)O)cc3ccccc23)c1O	Dengue virus type 2	viral replication, Rluc reporter replicon	BHK-21 DENV2 replicon cells	50 µM, 24 h	–	inhibition	47.5 ± 4.9%
COc1c(CCC[P+](c2ccccc2)(c2ccccc2)c2ccccc2)cc2c(c1OC)OCO2.[I-]	NCI-H322M	SRB	–	–	–	GI50	-5.5 log M
CC[C@H](C)[C@H](NC(=O)[C@H](C)NC(=O)[C@H](CCCCN)NC(=O)[C@H](CC(C)C)NC(=O)[C@H](C)NC(=O)[C@@H](NC(=O)[C@H](Cc1c[nH]cn1)NC(=O)[C@H](CC(C)C)NC(=O)[C@@H](NC(=O)[C@@H](NC(=O)[C@H](CCCCN)NC(=O)[C@H](C)NC(=O)[C@H](C)NC(=O)[C@H](CO)NC(=O)[C@H](CCCCN)NC(=O)[C@H](Cc1ccccc1)NC(=O)[C@@H](NC(=O)[C@H](CCCCN)NC(=O)[C@H](CC(C)C)NC(=O)[C@H](Cc1ccccc1)NC(=O)[C@H](CO)NC(=O)[C@H](CCCCN)NC(=O)[C@H](Cc1c[nH]c2ccccc12)NC(=O)[C@H](CCCCN)NC(C)=O)[C@@H](C)O)[C@@H](C)O)C(C)C)[C@@H](C)O)C(=O)N[C@@H](CO)C(=O)N[C@@H](CO)C(N)=O	Enterococcus faecalis	–	ATCC 29212	–	–	MIC geometric mean	32 µg/mL (≈ 10.9 µM)
CCCCCCCCCCCC[N+](C)(C)CCCNCCC[N+](C)(C)CCCCCCCCCCCC.[Br-].[Br-]	influenza A virus A/PR/8/34 (H1N1)	–	–	concentration not given, pre-treatment	–	HA titre reduction	3 ± 2 log units
O=C(O)/C=C/C(=O)O.Oc1cccc2[nH]cc(CCNC3CCCCC3)c12	–	–	C57BL/6J mice	subcutaneous, 0.1 mg/kg	–	head twitch count	6.3 ± 0.9
O=C(Cc1cccc(I)c1)N[C@H]1CCOC1=O	ExpR2 (Pectobacterium carotovorum)	cellulase activity, agonist	Pectobacterium carotovorum, single-ExpR2 strain	200 µM, 4 h	reference: OHHL	activation	61%
CCNCCc1c[nH]c2cccc(O)c12.CCNCCc1c[nH]c2cccc(O)c12.O=C(O)CCC(=O)O	–	–	C57BL/6J mice	subcutaneous, 0.03 mg/kg	–	head twitch response	7.3 ± 1.9 count/30 min
COc1cc(CCC[P+](c2ccccc2)(c2ccccc2)c2ccccc2)c(OC)c2c1OCO2.[I-]	RXF 393	SRB	–	–	–	LC50	-4.41 log M
CC[C@H](C)[C@@H]1NC(=O)[C@@H]2CCCN2C(=O)[C@H](CC(C)C)NC(=O)[C@H](CC(C)C)NC(=O)CNC(=O)[C@@H](NC(=O)[C@@H](NC(=O)[C@H](CC(=O)O)NC(=O)CNC(=O)[C@@H](NC(=O)[C@H](C)NC(=O)CNC(=O)[C@H](CCCCN)NC(=O)[C@H](CC(C)C)NC(=O)[C@H](CC(C)C)NC(=O)[C@H](CCCCN)NC(=O)CNC(=O)[C@@H](NC(=O)[C@@H](N)CC(C)C)C(C)C)C(C)C)C(C)C)CSSC[C@@H](C(=O)O)NC1=O	–	RNA-seq, refers to: Il18r1	mouse, traumatic brain injury model, frontal cortex and hippocampus	dose not given	reference: TBI alone	log2 fold change	-2.05
CCCCCCCCCCCCCCCC[N+](C)(C)CCCCCCCCCC[N+](C)(C)CCCCCCCCCCCCCCCC.[Br-].[Br-]	influenza A virus A/PR/8/34 (H1N1)	–	–	concentration not given, post-treatment	–	protection	66.4 ± 9.3%
CC(C)NCCc1c[nH]c2cccc(O)c12.O=C(O)/C=C/C(=O)O	–	–	C57BL/6J mice	subcutaneous, 10 mg/kg, 30 min	–	distance travelled	1740 ± 331 cm
C=CCN1CC[C@]23c4c5ccc(O)c4O[C@H]2C(=O)CC[C@@]3(O)[C@H]1C5	–	antinociception, hot plate	male ICR-CD1 mice	subcutaneous, 5 mg/kg, 15 min	–	maximum possible effect	-9.64% and 0.812% and 3.46% and 4.7% and -10.1% and 1.43%
CCCCCCCCCCCC[N+](C)(C)CCCCCC[N+](C)(C)CCCCCCCCCCCC.[Br-].[Br-]	influenza A virus A/PR/8/34 (H1N1)	–	–	concentration not given, co-treatment	–	HA titre reduction	5.5 ± 0.5 log units
C=CCNCCc1c[nH]c2cccc(O)c12.C=CCNCCc1c[nH]c2cccc(O)c12.O=C(O)/C=C/C(=O)O	–	–	C57BL/6J mice	subcutaneous, 1 mg/kg, 30 min	–	distance travelled	2660 ± 363 cm
O=c1ccn([C@@H]2O[C@](F)(CO)[C@@H](O)[C@H]2O)c(=O)[nH]1	human respiratory syncytial virus	–	recombinant reporter virus	concentration not given, scale 0 to 100, together with: adenosine 0.4 µM	–	normalized viral replication	1.86 and 2.19 and 1.12
CCCCNCCc1c[nH]c2cccc(O)c12.O=C(O)/C=C/C(=O)O	–	–	C57BL/6J mice	subcutaneous, 0.03 mg/kg, 30 min	–	distance travelled	2450 ± 320 cm
N.N.[Cl][Pt][Cl]	–	–	SAS xenograft, KSN/Slc nude mice	dose not given, day 4, group mean	–	tumour volume	152 mm3

For quick reference, copied from above:
SMILES	tested on	assay	test system	conditions	how to read	endpoint	value
CCCNCCc1c[nH]c2cccc(O)c12.CCCNCCc1c[nH]c2cccc(O)c12.O=C(O)/C=C/C(=O)O	–	–	C57BL/6J mice	subcutaneous, 0.1 mg/kg	–	head twitch count	6.4 ± 1.7
CN1CCN(C2(CNC3CCN(c4cccc(-c5cc6cc(F)ccc6[nH]5)c4)CC3)CCC2)CC1	UO-31	–	–	–	–	CC50	6.39 µM
